Experimental data collected from several papers.
Numbered parts are unrelated; each lists some results of a single study. Changes are numbered by the printed parent chain.

Sample 1
Target: Interferon regulatory factor 7, full length, phosphomimetic (IRF7, Homo sapiens, UniProt Q92985, residues 1-503, S101K/S471D/S472D/S475D/S476D/S477D/S483D/S484D/S487D)
Method: protein-binding microarray
Form: double-stranded DNA, one strand shown
Sample: in vitro
Concentration: 250 nM
Setting: 60-bp whole probe
Added: salmon DNA 0.4 mg/ml
Relative to: random background probes
Direction: higher = stronger binding
Quantity: log fluorescence
All sequences stand within: GCCTAGCAC … GTCTTGATTCGCTTGACGCTGCTG
Target sequence (chain): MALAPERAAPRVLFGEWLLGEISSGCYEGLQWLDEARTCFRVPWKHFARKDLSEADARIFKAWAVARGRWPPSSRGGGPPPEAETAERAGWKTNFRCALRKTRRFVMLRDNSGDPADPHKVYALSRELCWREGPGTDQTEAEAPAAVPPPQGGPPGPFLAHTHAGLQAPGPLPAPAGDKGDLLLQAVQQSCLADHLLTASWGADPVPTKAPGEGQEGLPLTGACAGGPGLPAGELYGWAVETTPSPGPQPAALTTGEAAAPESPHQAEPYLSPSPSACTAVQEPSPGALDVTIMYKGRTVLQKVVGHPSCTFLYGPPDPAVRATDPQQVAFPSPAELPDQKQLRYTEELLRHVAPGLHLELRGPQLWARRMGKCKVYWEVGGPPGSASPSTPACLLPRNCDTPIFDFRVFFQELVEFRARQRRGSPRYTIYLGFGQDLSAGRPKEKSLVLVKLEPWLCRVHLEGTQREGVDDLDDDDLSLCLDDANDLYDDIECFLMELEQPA
GGAAGTCCCATGTTGCAGACTGTGCTA: 0.546 z-score
GACGATTTTGGGACTGGAGACGTGCTA: -0.0672 z-score
GACCGTATCGACTATCGGGACGTGCTA: 0.308 z-score
TTAGATATCGGGACTGGGTTAGTGCTA: -0.0744 z-score
GACGGTTCCGGGTTTCGGGACGTGCTA: 4.45 z-score
TCACATTTCCAATTACCACTGTGCTAG: 1.87 z-score
CCCAATTCTCTTTTCACTTTGTGCTAG: 2.01 z-score
TTAGGACTGGGTATCGGTGAGTGCTAG: -0.179 z-score
TTAGATACCGGGTATCGATTAGTGCTA: 1.19 z-score
AACGGACTGGGTATCGGGACGTGCTAG: -0.246 z-score
AACGGTTTCCTACTGCTGACGTGCTAG: 1.86 z-score
GTAGGACTGGACTTTCGGTTAGTGCTA: 0.051 z-score
TTAGGTATCGGACTGGGTCAGTGCTAG: 0.0615 z-score
TACGAACTGAGACTGGAGACGTGCTAG: -0.187 z-score
TCATACTTCTCTTTTGGACTGTGCTAG: 0.779 z-score

Sample 2
Target: CCNA1, cyclin fold, Cln2 fusion (human)
Method: yeast growth competition, sequencing
Sample: yeast
Setting: weak parent motif
Relative to: not given
Direction: higher = stronger binding
Quantity: normalised enrichment score
Starting sequence: CUX1 docking peptide (human); SRIRRELFIEEIQ
F8L: 0.395
I12A: 0.213
Q13A: 0.609
E10A: 0.582
R4A: 0.416
R5A: 0.696
E11A: 0.821

Sample 3
Substance: PhoQ, residues 284 288 289 292 302 303 NLGVHL
Method: Sort-seq
Item: YFP reporter
Sample: E. coli
Setting: PhoQ-PhoP variant library
Added: 10 µM Mg2+
Relative to: high Mg2+ state
Direction: higher = stronger signaling
Quantity: fold induction
PhoP, residues 12 14 15 18 19 TQALL (Escherichia coli, UniProt P23836): 8.26
PhoP, residues 12 14 15 18 19 NYFRM (Escherichia coli, UniProt P23836): 3.33
PhoP, residues 12 14 15 18 19 QYFSL (Escherichia coli, UniProt P23836): 7.91

Sample 4
Target: Sal-like protein 4, full length isoform A (SALL4, Homo sapiens, UniProt Q9UJQ4, residues 1-1053)
UniProt Q9UJQ4, sequence (whole entry, looked up): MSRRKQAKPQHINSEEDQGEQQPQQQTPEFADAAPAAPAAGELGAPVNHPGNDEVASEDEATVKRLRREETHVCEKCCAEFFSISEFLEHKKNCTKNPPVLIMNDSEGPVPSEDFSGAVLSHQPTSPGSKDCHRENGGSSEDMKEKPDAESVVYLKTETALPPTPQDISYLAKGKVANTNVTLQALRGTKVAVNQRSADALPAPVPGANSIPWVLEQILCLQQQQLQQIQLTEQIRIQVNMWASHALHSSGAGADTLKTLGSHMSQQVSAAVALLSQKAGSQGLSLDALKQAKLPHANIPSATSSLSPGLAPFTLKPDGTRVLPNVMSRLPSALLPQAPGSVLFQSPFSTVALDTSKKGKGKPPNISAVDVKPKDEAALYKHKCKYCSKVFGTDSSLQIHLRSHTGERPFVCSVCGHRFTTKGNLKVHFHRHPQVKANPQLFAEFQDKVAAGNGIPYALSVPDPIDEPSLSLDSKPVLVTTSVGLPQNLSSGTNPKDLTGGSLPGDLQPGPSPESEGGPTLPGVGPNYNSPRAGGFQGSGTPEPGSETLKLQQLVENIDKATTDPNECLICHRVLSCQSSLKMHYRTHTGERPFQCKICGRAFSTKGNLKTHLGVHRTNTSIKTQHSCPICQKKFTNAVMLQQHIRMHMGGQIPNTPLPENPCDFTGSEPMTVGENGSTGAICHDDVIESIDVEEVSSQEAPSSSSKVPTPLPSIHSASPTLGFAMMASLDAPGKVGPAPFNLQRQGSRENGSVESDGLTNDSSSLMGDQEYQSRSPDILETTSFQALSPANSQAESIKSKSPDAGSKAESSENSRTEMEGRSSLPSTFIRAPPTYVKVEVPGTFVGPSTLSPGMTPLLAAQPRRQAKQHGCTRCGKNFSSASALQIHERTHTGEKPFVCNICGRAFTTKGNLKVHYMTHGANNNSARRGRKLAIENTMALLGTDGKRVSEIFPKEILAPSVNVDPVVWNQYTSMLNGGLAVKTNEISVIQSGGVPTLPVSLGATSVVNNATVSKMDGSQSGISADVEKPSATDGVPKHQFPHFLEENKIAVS
Method: universal PBM
Form: double-stranded DNA, one strand shown
Sample: in vitro
Concentration: 600 nM
Setting: 8-mer, flanks averaged, mean of replicates
Direction: higher = stronger binding
Quantity: E-score
GGGCCACC: -0.396
GATGAAGA: 0.197
ATTCAAGA: 0.168
CTACAGGC: -0.111
CCCCGTTA: -0.131
GACATCAC: 0.0136
CGATAAAC: -0.0106
AACCGTTG: 0.029
ATCTTCAA: 0.292
ATGACCCC: -0.16
AGTATCAG: -0.0192
ACTACATG: 0.134
CTTAAGCA: 0.0599
CAACCTGA: 0.0508
GTTGCATA: 0.0886
TAAGCCTA: 0.0731
